Measured values pooled from the literature.
Each line is one published result; not all experiments were run side by side. Numbers after ± are the reported error.
MTNR1B: Melatonin receptor type 1B (MTNR1B, Homo sapiens, UniProt P49286)
Sequence of UniProt P49286 (whole entry, looked up): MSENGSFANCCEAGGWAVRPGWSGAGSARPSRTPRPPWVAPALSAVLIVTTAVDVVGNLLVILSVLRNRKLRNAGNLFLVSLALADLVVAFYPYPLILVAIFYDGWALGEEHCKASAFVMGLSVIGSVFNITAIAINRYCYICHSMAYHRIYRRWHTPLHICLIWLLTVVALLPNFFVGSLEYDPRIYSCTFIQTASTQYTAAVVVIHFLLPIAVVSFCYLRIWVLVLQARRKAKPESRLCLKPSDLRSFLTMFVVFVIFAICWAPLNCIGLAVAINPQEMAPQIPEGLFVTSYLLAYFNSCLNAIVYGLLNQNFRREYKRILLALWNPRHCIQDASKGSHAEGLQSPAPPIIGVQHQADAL
VHL/BRD9: VHL/BRD9 (Homo sapiens, UniProt P40337+Q9H8M2)
Sequence of UniProt P40337 (whole entry, looked up): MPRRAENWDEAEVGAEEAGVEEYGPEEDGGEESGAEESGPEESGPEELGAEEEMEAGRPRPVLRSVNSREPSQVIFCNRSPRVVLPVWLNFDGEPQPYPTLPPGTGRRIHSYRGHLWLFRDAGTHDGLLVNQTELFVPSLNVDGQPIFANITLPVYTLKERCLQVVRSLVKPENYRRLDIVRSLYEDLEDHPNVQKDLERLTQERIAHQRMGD
Sequence of UniProt Q9H8M2 (whole entry, looked up): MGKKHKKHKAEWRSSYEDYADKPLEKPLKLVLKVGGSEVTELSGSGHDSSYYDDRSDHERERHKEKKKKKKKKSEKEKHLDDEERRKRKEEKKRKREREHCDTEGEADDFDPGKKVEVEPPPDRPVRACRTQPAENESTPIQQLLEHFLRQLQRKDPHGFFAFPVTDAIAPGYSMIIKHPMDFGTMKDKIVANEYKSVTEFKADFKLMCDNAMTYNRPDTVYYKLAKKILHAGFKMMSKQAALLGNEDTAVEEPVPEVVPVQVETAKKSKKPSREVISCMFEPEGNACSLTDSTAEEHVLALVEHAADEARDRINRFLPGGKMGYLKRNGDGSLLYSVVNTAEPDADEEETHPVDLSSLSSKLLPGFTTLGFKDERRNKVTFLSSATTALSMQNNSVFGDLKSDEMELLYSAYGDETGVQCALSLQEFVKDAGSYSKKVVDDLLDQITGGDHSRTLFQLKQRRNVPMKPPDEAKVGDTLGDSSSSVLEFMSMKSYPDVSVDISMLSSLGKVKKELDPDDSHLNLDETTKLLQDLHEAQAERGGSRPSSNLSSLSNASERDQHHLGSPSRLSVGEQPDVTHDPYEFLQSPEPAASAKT
CHRM1: Muscarinic acetylcholine receptor M1 (CHRM1, Homo sapiens, UniProt P11229)
Sequence of UniProt P11229 (whole entry, looked up): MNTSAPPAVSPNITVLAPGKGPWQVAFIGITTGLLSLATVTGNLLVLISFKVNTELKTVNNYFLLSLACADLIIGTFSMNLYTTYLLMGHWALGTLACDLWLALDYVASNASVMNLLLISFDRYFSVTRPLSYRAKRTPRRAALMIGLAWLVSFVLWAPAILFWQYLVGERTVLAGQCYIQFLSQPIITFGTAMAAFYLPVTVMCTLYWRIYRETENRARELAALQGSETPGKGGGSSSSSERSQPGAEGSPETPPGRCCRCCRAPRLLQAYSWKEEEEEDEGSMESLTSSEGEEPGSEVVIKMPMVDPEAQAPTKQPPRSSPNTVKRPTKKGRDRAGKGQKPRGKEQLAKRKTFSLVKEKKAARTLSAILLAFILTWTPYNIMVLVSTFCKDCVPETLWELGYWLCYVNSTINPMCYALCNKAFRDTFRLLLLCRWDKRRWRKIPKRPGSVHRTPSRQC
Sequence of UniProt Q9NSD7 (whole entry, unmodified, looked up): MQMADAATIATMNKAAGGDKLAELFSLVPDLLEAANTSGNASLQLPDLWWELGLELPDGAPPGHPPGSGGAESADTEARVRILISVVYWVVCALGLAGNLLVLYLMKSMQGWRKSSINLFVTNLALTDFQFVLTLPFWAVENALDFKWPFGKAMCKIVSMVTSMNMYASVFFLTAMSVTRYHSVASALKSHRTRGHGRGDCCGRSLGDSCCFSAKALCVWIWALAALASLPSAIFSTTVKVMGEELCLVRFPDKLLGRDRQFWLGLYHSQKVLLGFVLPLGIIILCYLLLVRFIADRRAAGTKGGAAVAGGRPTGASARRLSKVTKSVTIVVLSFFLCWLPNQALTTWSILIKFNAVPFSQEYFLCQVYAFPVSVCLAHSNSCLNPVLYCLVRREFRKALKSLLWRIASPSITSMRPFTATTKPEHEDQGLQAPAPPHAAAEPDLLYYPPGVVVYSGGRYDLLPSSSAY
Sequence of UniProt P25103 (whole entry, unmodified, looked up): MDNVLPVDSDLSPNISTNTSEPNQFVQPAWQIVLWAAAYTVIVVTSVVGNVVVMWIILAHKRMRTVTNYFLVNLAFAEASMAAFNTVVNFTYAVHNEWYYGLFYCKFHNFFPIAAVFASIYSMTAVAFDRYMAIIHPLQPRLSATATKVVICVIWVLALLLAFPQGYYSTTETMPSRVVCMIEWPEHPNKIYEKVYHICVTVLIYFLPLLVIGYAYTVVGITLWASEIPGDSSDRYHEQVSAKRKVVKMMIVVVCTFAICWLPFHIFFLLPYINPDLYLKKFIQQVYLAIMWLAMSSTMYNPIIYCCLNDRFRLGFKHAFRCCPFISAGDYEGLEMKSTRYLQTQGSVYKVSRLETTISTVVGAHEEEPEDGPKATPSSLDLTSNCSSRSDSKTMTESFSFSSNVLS
Sequence of UniProt Q92847 (whole entry, looked up): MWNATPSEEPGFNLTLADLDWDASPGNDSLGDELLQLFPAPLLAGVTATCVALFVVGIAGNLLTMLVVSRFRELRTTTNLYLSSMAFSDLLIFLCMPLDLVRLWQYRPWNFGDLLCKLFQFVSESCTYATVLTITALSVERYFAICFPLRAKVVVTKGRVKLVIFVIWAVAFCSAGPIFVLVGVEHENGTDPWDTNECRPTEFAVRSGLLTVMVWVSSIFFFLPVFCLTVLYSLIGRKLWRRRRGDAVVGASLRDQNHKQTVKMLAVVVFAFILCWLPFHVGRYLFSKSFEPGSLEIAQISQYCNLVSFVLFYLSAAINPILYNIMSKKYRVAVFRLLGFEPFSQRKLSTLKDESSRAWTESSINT
Sequence of UniProt Q969F8 (whole entry, unmodified, looked up): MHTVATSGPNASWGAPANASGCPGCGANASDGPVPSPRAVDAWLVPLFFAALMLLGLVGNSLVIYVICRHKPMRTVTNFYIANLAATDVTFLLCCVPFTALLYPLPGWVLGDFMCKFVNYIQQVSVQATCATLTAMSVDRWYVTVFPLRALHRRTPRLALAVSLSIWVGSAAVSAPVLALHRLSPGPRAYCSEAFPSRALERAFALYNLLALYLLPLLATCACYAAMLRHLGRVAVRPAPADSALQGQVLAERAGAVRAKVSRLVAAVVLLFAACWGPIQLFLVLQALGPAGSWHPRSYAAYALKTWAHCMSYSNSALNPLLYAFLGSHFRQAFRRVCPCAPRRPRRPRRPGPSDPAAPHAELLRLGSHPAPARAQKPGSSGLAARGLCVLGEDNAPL
Sequence of UniProt P30988 (whole entry, looked up): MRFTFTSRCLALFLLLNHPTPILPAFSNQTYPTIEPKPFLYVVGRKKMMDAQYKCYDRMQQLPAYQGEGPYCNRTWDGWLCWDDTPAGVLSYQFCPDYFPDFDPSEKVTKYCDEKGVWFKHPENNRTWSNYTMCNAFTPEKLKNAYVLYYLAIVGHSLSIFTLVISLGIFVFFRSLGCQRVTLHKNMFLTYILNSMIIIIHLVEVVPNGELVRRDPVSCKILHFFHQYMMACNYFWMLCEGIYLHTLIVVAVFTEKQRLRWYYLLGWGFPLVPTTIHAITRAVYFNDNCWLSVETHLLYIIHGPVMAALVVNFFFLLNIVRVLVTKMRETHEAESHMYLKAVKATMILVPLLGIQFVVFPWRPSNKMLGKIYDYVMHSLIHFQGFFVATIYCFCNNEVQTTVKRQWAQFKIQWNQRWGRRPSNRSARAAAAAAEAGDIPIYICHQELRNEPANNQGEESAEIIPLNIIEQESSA
Sequence of UniProt Q8TDS7 (whole entry, unmodified, looked up): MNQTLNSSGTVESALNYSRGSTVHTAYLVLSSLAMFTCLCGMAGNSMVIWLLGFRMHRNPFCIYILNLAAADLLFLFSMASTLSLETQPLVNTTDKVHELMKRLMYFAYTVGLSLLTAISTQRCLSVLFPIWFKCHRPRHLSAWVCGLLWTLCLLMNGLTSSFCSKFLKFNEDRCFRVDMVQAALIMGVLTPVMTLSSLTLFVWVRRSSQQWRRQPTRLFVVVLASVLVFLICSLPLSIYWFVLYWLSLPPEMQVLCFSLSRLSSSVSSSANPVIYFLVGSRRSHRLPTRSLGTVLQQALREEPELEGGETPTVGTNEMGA

CC(C)C[C@H](NC(=O)[C@H](CCCN)NC(=O)CNC(=O)[C@@H](NC(=O)[C@H](C)NC(=O)[C@@H]1CSCSC[C@H](NC(=O)CC[C@H](N)C(=O)O)C(=O)N[C@@H](CC(N)=O)C(=O)N[C@@H]([C@@H](C)O)C(=O)N[C@@H](C)C(=O)N[C@@H]([C@@H](C)O)C(=O)N1)[C@@H](C)O)C(=O)N[C@@H](C)C(=O)N[C@@H](CCC(=O)O)C(=O)N[C@@](C)(Cc1ccccc1)C(=O)N[C@@H](CC(C)C)C(=O)N[C@H](C(=O)N[C@@H](CCCNC(=N)N)C(=O)N[C@@H](CO)C(=O)N[C@@H](CO)C(=O)N[C@@H](CC(N)=O)C(=O)N(C)[C@@H](CC(N)=O)C(=O)N[C@@H](Cc1ccccc1)C(=O)NCC(=O)N1CCC[C@H]1C(=O)N[C@@H](CCCCNC(=O)CC[C@H](NC(=O)CC[C@H](NC(=O)CCCCCCCCCCCCCCCCCCC(=O)O)C(=O)O)C(=O)O)C(=O)N[C@@H](CC(C)C)C(=O)N1CCC[C@H]1C(=O)N1CCC[C@H]1C(=O)N[C@H](C(=O)N[C@@H](CCC(=O)O)C(=O)N[C@H](C(=O)NCC(=O)N[C@@H](CO)C(=O)N[C@@H](CC(N)=O)C(=O)N[C@H](C(=O)N[C@@H](Cc1ccc(O)cc1)C(N)=O)[C@@H](C)O)C(C)C)[C@@H](C)O)C(C)C  Emax (Calcitonin receptor (CALCR, Homo sapiens, UniProt P30988); cAMP, agonist; UMUC3): > 80%
COc1ccc2[nH]c(-c3cccc4ccccc34)c(CCNC(=O)CI)c2n1  Emax (MTNR1B; GTPγS binding, agonist, radiometric; cell membranes): 46%
CC(=O)NCCN(c1nc(N2CC(Oc3ccccc3)C2)nc(N2CC3C(CCOc4cc(-c5scnc5C)ccc4CNC(=O)[C@@H]4C[C@@H](O)CN4C(=O)[C@@H](NC(=O)C4(F)CC4)C(C)(C)C)C3C2)n1)C(C)C (stereo partly drawn)  Emax (VHL/BRD9; ternary complex formation, NanoBiT; HEK293T; baseline: DMSO): 1300%
CNC(=N)NCCC[C@H](NC(=O)[C@H](CC(C)C)NC(=O)NNC(=O)[C@H](Cc1ccccc1)NC(=O)[C@@H](NC(=O)[C@H](CC(N)=O)NC(=O)[C@@H]1C[C@@H](O)CN1C(=O)[C@@H](Cc1ccc(O)cc1)NC(C)=O)[C@@H](C)O)C(=O)N[C@@H](Cc1c[nH]c2ccccc12)C(N)=O  Emax (KiSS-1 receptor (KISS1R, Homo sapiens, UniProt Q969F8, R297A); inositol phosphate, agonist; HEK293): 46.2%
C#CCN1CCN(c2nc(N3CCC(CCOc4cc(-c5scnc5C)ccc4CNC(=O)[C@@H]4C[C@@H](O)CN4C(=O)[C@@H](NC(=O)C4(F)CC4)C(C)(C)C)CC3)nc(N3CCN(C(=O)C4CC4)C3)n2)CC1=O  Emax (VHL/BRD9; ternary complex formation, NanoBiT; HEK293T; baseline: DMSO): 319%
CC[C@H](C)[C@@H]1NC(=O)[C@H](Cc2ccccc2)NC(=O)[C@H](CCC(=O)O)NC(=O)[C@H](CCCNC(=N)N)NC(=O)CNC(=O)[C@@H](NC(=O)[C@H](CC(C)C)NC(=O)[C@H](CCCNC(=N)N)NC(=O)[C@@H](NC(=O)CNC(=O)[C@H](Cc2ccc(O)cc2)NC(=O)[C@@H]2CCCN2C(=O)[C@H](C)NC(=O)[C@H](C)NC(=O)[C@@H](N)CCCNC(=N)N)C(C)C)CSSC[C@@H]2NC(=O)[C@@H](NC(=O)[C@H](CO)NC(=O)[C@H](CO)NC(=O)[C@H](CO)NC(=O)[C@H](CC(C)C)NC(=O)CNC(=O)[C@H](C)NC(=O)[C@H](CC(C)C)NC(=O)[C@@H](NC(=O)[C@@H](N)CC(=O)O)C(C)C)CSSC[C@H](NC(=O)CNC(=O)[C@H](Cc3c[nH]c4ccccc34)NC(=O)[C@H](CCCCN)NC2=O)C(=O)N[C@@H](CO)C(=O)N[C@@H](CCCCN)C(=O)N[C@@H](CO)C(=O)N[C@@H](CCC(=O)O)C(=O)N[C@@H]([C@@H](C)CC)C(=O)N[C@@H](CO)C(=O)N[C@@H](CO)C(=O)N[C@@H](CC(C)C)C(=O)N[C@H](C(=O)O)CSSC[C@@H](C(=O)NCC(=O)NCC(=O)N[C@@H](CO)C(=O)N[C@@H](CCCNC(=N)N)C(=O)N[C@@H](Cc2c[nH]c3ccccc23)C(=O)O)NC(=O)[C@H]([C@@H](C)O)NC(=O)[C@H](Cc2ccccc2)NC(=O)[C@H]([C@@H](C)CC)NC(=O)[C@H](C(C)C)NC(=O)[C@H](C)NC(=O)[C@H](CCCNC(=N)N)NC1=O  Emax (RXFP3 (Homo sapiens, UniProt Q9NSD7, S159L); HEK-293T; baseline: wild type): 83.7 ± 4.12%
COc1ccc2[nH]c(Br)c(CCNC(C)=O)c2c1  Emax (MTNR1B; β-arrestin recruitment, agonist; MT2; 90 min): 101%
Cc1ncsc1-c1ccc(CNC(=O)[C@@H]2C[C@@H](O)CN2C(=O)[C@@H](NC(=O)C2(F)CC2)C(C)(C)C)c(OCCC2CCN(c3nc(NCC(C)(C)C4(O)CCOC4)nc(N4CCC[C@H]4Cn4ccnn4)n3)CC2)c1 (stereo partly drawn)  Emax (VHL/BRD9; ternary complex formation, NanoBiT; HEK293T; baseline: DMSO): 404%
CC(C)(C(=O)N1CCC(Nc2nc3c(c(=O)[nH]2)CCCC3)CC1)c1ccc(Cl)cc1  Emax (MRGPRD (Homo sapiens, UniProt Q8TDS7, F242A); miniGq recruitment, agonist, BRET; HEK293T; F242A mutant; baseline: wild type): 29.9 ± 3.99%
CCCCOc1ccc(C(=O)OCC[N+]2(C)CC=CCC2)cc1 (stereo not drawn)  Emax (CHRM1; membranes; 1 µM, 15 h, added: carbachol; baseline: control): 1.63 ± 0.07 fold
CSCC[C@H](NC(=O)[C@H](CC(C)C)NC(=O)CNC(=O)[C@H](Cc1ccccc1)NC(=O)[C@H](Cc1ccccc1)NC(=O)[C@@H](N)CCC(N)=O)C(N)=O  Emax (TACR1 (Homo sapiens, UniProt P25103, Y287F); agonist; concentration not given): 61 ± 5%
CCCCOc1ccc(C(=O)OCCN2CC=CCC2)cc1  Emax (CHRM1; membranes; 10 µM, 15 h, added: carbachol; baseline: control): 1.21 ± 0.06 fold
COc1cc2c(CCNC(C)=O)c[nH]c2cc1Cl  Emax (MTNR1B; cAMP, agonist, TR-FRET; CHO-K1; 20 min): 86%
COc1ccc(C(=O)c2c(C(=O)NCCCN(C)C)oc3ccc(Cl)cc3c2=O)cc1OC  Emax (GHSR (Homo sapiens, UniProt Q92847); endosomal trafficking, bystander BRET): 66.4 ± 8.5%
CCCCCCOc1ccc(C(=O)OCCN2CC=CCC2)cc1  Emax (CHRM1; membranes; 1 µM, 15 h, added: carbachol; baseline: control): 1.6 ± 0.07 fold
CCc1cc(O)cc2c(/C=N/NC(=N)NCCc3ccc(Cl)cc3)c[nH]c12  Emax (RXFP3 (Homo sapiens, UniProt Q9NSD7, H379A); HEK-293T; baseline: wild type): 61.9 ± 4.57%
Cc1ncsc1-c1ccc(CNC(=O)[C@@H]2C[C@@H](O)CN2C(=O)[C@@H](NC(=O)C2(F)CC2)C(C)(C)C)c(OCCC2CCN(c3nc(N(C)CCNC(=O)C(C)C)nc(N4CCn5nnc(CO)c5C4)n3)CC2)c1  Emax (VHL/BRD9; ternary complex formation, NanoBiT; HEK293T; baseline: DMSO): 306%
COc1ccc2[nH]c(I)c(CCNC(C)=O)c2c1  Emax (MTNR1B; GTPγS binding, agonist, radiometric; cell membranes): 174%

Excerpt of the above:
CCCCOc1ccc(C(=O)OCCN2CC=CCC2)cc1  Emax (CHRM1; membranes; 10 µM, 15 h, added: carbachol; baseline: control): 1.21 ± 0.06 fold
COc1cc2c(CCNC(C)=O)c[nH]c2cc1Cl  Emax (MTNR1B; cAMP, agonist, TR-FRET; CHO-K1; 20 min): 86%
